Published values pooled from the literature.
Numbered parts are unrelated; each lists some results of a single study.

Block 1
Target: Replicase polyprotein 1ab, main protease (rep, Severe acute respiratory syndrome coronavirus 2, UniProt P0DTD1)
Effect on: enzyme activity
Action: inhibitor
Concentration: 20 µM
Measurement: inhibition
SMILES = CC(C)(C)c1ccc(S(=O)(=O)/C=C/C#N)cc1; value = -7.9%
SMILES = Cc1cc(C)cc(N2C(=O)CC(Sc3nnc[nH]3)C2=O)c1 (stereo not drawn); value = 15.9%
SMILES = COC(=O)/C=C/c1cc(O)ccc1O; value = -54.6%
SMILES = Cc1cc(-c2ccc(/C=C3/SC(Nc4ccc(Cl)c(C(=O)O)c4)=NC3=O)o2)c([N+](=O)[O-])cc1C; value = 73.3%

Block 2
Cell line: HEK-293T
Effect on: pseudovirus infection
Technique: FDA-approved drug library screen
Organism: VSV pseudotyped with SARS-CoV-2 spike
Concentration: 10 µM
Time: 16 h
Relative to: vehicle-treated
Measurement: GFP-positive cells
SMILES = Cc1cccc(Nc2ccncc2S(=O)(=O)NC(=O)NC(C)C)c1; value = 72.2%
SMILES = CS(=O)(=O)OCCCCOS(C)(=O)=O; value = 77.3%
SMILES = CN(C)C(=O)Oc1ccc[n+](C)c1; value = 95.3%
SMILES = CC(CN(C)C)CN1c2ccccc2CCc2ccccc21 (stereo not drawn); value = 23.2%
SMILES = CCCc1nc(C(C)(C)O)c(C(=O)OCc2oc(=O)oc2C)n1Cc1ccc(-c2ccccc2-c2nnn[nH]2)cc1; value = 86.2%
SMILES = C[C@]12CC[C@@H]3c4ccc(O)cc4C[C@@H](CCCCCCCCC[S+]([O-])CCCC(F)(F)C(F)(F)F)[C@H]3[C@@H]1CC[C@@H]2O (stereo partly drawn); value = 72.9%

Block 3
Target: RNA binding protein fox-1 homolog 2, RRM domain, GST-SBP tag (RBFOX2, Homo sapiens, UniProt O43251-10, residues 100-194)
Technique: RNA Bind-n-Seq
Molecule type: RNA
Medium: in vitro
Concentration: 365 nM
Notes: natural RNA segment, single round, ends assumed
Relative to: no-protein control
Reading: higher = stronger binding
Measurement: RBNS enrichment (R)
Target sequence (chain): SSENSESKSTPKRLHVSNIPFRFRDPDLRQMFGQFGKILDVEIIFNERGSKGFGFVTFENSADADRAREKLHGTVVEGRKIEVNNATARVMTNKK
Strand = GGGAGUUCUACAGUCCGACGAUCCUGGCUCAGACCUCUUAGACUGGUCUCUCUUCCUCAGCUGCUGGGUUCUUUGUCUGCCCAGCUAUUGGAGGAUGGGAAGUGGAGGGAGGGUCACUCUUUCCCUCUUACUGUGGAAUUCUCGGGUGCCAA; value = 0.566
Strand = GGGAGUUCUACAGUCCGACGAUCGGAUGACAUCGAACGUUUGGCCAGCCGCUUUCUACACCCUGAAGUGACUGAGGCUAUGGAAAAAGGGUUCUGCAAAUAGCAUUCUGGGAUUGUGGGGAGAAAUCCCAGGUUGGAAUUCUCGGGUGCCAA; value = 0.821
Strand = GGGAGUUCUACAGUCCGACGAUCUUAUCCUAGUGAGGUCAUUAUCAGGAGUUGCCAUAUCAUCUCUCCAGUACCUAACAUUUCUCAUCCACUUCAAAAGCUGUUCUGACUGCCAGCUGGCUGAUCUAAGCUCCUGGAAUUCUCGGGUGCCAA; value = 0.356
Strand = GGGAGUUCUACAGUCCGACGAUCCUCUGGCCAUCAGUCCUGGUGCCAGAGCUUUGCGUGAAGUUCGGGCCGCAGAGUGGCCCGCUGGGACUCCCAUGUGCUGCCGUCUGAUGUGCUCAGAUGGGCUCAUCGUUUGGAAUUCUCGGGUGCCAA; value = 0.247
Strand = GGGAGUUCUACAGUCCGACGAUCUUUCAGGGAAGGCAUGGAGGCAUAGUUUGGUUAGUUUCAUCACUAGGAUGUAUAAGGUGACGACACAAACCAAAUACCUUUCUUUCAUCACUUAACUAUACGUACUUUAUUGGAAUUCUCGGGUGCCAA; value = 3.09
Strand = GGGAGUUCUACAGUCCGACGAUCUAAAAACUGAACACGAUAACACUUACUCUUAAAUCAAGCAUCAACACUUUUUCCCUGUUAGAAUUCUUUGCAUUUUUGUGUUUGUAACAGAAACGCCUUAAGACACUAUGUGGAAUUCUCGGGUGCCAA; value = 0.818
Strand = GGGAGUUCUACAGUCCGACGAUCGAAGGGUCGUGGUCCAGAGCUCCUUGGGUCCCAUGAAACUGCCCUGUUCUCUGUGGCUGUGGACAGUCGUUGCCAGCUGCAUCUGUUGCCCUCACGGGGGAGUGUUCCUGUGGAAUUCUCGGGUGCCAA; value = 0.243
Strand = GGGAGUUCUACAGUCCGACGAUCUAUGUGAUGUUGUUAAUUUCUUUUAUUGCAUUAUAAAAUAAAAGGAUUAUGUAUUUUUAACUAAGGUGAGACAUUGAUAUAUCCUUUUGCUACAAGCUAUAGCUAAUGUGUGGAAUUCUCGGGUGCCAA; value = 1.7

Block 4
Target: Interferon regulatory factor 7, full length, phosphomimetic (IRF7, Homo sapiens, UniProt Q92985, residues 1-503, S101K/S471D/S472D/S475D/S476D/S477D/S483D/S484D/S487D)
Technique: protein-binding microarray
Molecule type: double-stranded DNA, one strand shown
Medium: in vitro
Concentration: 250 nM
Notes: 60-bp whole probe
With: salmon DNA 0.4 mg/ml
Relative to: random background probes
Reading: higher = stronger binding
Measurement: log fluorescence
Constant ends, left off below: GCCTAGCAC … GTCTTGATTCGCTTGACGCTGCTG
Target sequence (chain): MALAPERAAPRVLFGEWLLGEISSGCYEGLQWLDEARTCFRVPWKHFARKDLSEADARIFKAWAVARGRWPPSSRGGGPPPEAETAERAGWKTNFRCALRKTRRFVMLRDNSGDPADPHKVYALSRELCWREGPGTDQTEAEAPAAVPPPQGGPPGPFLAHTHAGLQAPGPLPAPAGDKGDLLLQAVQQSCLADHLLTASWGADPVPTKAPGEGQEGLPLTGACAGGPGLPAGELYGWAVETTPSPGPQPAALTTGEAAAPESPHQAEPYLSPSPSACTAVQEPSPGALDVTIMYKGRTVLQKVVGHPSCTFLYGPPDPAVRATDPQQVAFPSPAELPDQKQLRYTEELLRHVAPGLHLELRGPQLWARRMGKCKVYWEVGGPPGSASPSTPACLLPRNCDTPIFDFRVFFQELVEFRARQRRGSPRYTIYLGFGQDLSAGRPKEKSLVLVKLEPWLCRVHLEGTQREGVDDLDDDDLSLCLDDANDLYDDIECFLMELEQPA
Strand = GACGGTATGGGACTGGGGACGTGCTAG; value = -0.367 z-score
Strand = TCAACAATTTCAGATTCCACTGTGCTA; value = 0.36 z-score
Strand = CTGGCTTTGACTCTTTCTGTGTGCTAG; value = -0.634 z-score
Strand = TTAGATTTAAGACTGGATTAGTGCTAG; value = 0.0318 z-score
Strand = CATTTATTTACTCTCTACATGTGCTAG; value = 2.19 z-score
Strand = TCAGATTTCAGTTCCGATTAGTGCTAG; value = 1.81 z-score
Strand = GACGGTCTCGGACTTGGGACGTGCTAG; value = -0.035 z-score
Strand = GTAGGTCTCGGTCTCGGTTAGTGCTAG; value = 1.77 z-score

Block 5
Target: Replicase polyprotein 1ab, polymerase (rep, Severe acute respiratory syndrome coronavirus 2, UniProt P0DTD1)
Effect on: enzyme activity
Action: inhibitor
Concentration: 20 µM
Measurement: inhibition
Structure (SMILES) = Cc1onc(-c2ccccc2Cl)c1C(=O)N[C@@H]1C(=O)N2[C@@H]1SC(C)(C)[C@@H]2C(=O)O; value = 1.85%
Structure (SMILES) = CCOC(=O)c1ccc(N2NC(=O)/C(=C/c3ccc([N+](=O)[O-])o3)C2=O)cc1; value = 98%
Structure (SMILES) = CCCC(C)NC(=O)c1ccc(Cl)c(Cl)c1 (stereo not drawn); value = -25.6%
Structure (SMILES) = C=CC(=O)Nc1cccc(Nc2nc(Nc3ccc(OCCOC)cc3)ncc2F)c1; value = 1.49%
Structure (SMILES) = COc1ccc(O)c(C(C)(C)C)c1; value = 2.47%
Structure (SMILES) = CC(C)COc1ccc(CNC(=O)N(Cc2ccc(F)cc2)C2CCN(C)CC2)cc1; value = -2.89%
Structure (SMILES) = COC(c1ccccc1)(c1ccccc1)[C@H](Oc1nc(C)cc(C)n1)C(=O)O; value = 15.1%
Structure (SMILES) = CC(C)[C@@H](N)C(=O)O; value = -2.08%
Structure (SMILES) = CN1CCN(C(c2ccccc2)c2ccc(Cl)cc2)CC1 (stereo not drawn); value = -3.87%
Structure (SMILES) = Cc1ncc(C[n+]2csc(CCO)c2C)c(N)n1; value = -1.78%
Structure (SMILES) = NCCNS(=O)(=O)c1ccc(Cl)c2ccncc12; value = 1.63%
Structure (SMILES) = CC[C@H]1OC(=O)[C@H](C)[C@@H](O[C@H]2C[C@@](C)(OC)[C@@H](O)[C@H](C)O2)[C@H](C)[C@@H](O[C@@H]2O[C@H](C)C[C@H](N(C)C)[C@H]2O)[C@](C)(O)C[C@@H](C)CN(C)[C@H](C)[C@@H](O)[C@]1(C)O; value = 1.88%
Structure (SMILES) = O=C(O)[C@@H]1C[C@H](CP(=O)(O)O)CCN1; value = -5.26%
Structure (SMILES) = CCN1CCN(C(=O)N[C@@H](C(=O)N[C@@H]2C(=O)N3C(C(=O)O)=C(CSc4nnnn4C)CS[C@H]23)c2ccc(O)cc2)C(=O)C1=O; value = 17%
Structure (SMILES) = Cc1nc(Nc2ncc(C(=O)Nc3c(C)cccc3Cl)s2)cc(N2CCN(CCO)CC2)n1; value = 9.58%
Structure (SMILES) = COc1cccc(-c2ccc([C@@H](Oc3cc(-c4ccc(C[C@H](N)C(=O)O)cc4)nc(N)n3)C(F)(F)F)cc2)c1; value = 50.1%
Structure (SMILES) = O=C(NCCN1CCN(c2ncccn2)CC1)C12CC3CC(CC(C3)C1)C2; value = -1.53%
Structure (SMILES) = CC1=CC(=O)NS(=O)(=O)O1; value = 5.44%
Structure (SMILES) = N=C(NCc1ccc(Cl)cc1)SCCCc1c[nH]cn1; value = -9.78%
Structure (SMILES) = O=c1[nH]c2ccc(Cl)cc2c(N[C@@H]2CN3CCC2CC3)c1-c1nc2ccccc2[nH]1; value = 2.63%
Structure (SMILES) = CCCCCCOc1ccccc1C(N)=O; value = 3.62%
Structure (SMILES) = Oc1ccc(Cl)cc1Cc1cc(Cl)ccc1O; value = -1.86%
Structure (SMILES) = CCNC1=Nc2ccc(Cl)cc2C(C)(c2ccccc2)O1 (stereo not drawn); value = -11.5%
Structure (SMILES) = CC[N+]1(C)CCCC(OC(=O)C(O)(c2ccccc2)c2ccccc2)C1 (stereo not drawn); value = -0.66%
Structure (SMILES) = C=CC(=O)Nc1cccc(Nc2nc(Nc3ccc(N4CCN(C(C)=O)CC4)cc3OC)ncc2C(F)(F)F)c1; value = 1.34%

Repeated from above (block 2):
SMILES = CS(=O)(=O)OCCCCOS(C)(=O)=O; value = 77.3%
SMILES = CN(C)C(=O)Oc1ccc[n+](C)c1; value = 95.3%
SMILES = CC(CN(C)C)CN1c2ccccc2CCc2ccccc21 (stereo not drawn); value = 23.2%
SMILES = CCCc1nc(C(C)(C)O)c(C(=O)OCc2oc(=O)oc2C)n1Cc1ccc(-c2ccccc2-c2nnn[nH]2)cc1; value = 86.2%
